Measurements from different studies.
Each line is one published result; not all experiments were run side by side. Numbers after ± are the reported error.
Sequence of UniProt P05177 (whole entry, looked up): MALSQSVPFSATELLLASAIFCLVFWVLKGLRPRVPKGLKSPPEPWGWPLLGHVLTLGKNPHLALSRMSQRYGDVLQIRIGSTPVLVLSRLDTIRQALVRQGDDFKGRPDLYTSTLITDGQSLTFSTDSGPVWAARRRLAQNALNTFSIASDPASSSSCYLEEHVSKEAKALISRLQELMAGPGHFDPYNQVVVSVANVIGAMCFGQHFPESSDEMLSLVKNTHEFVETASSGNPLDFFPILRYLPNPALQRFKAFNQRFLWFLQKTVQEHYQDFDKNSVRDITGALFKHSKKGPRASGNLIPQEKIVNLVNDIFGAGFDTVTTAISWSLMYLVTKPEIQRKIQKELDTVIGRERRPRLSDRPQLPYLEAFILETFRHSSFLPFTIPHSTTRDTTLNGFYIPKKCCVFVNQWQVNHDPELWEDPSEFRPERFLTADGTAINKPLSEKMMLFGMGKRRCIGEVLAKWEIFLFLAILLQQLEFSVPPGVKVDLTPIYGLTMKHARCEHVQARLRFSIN
Sequence of UniProt P10635 (whole entry, looked up): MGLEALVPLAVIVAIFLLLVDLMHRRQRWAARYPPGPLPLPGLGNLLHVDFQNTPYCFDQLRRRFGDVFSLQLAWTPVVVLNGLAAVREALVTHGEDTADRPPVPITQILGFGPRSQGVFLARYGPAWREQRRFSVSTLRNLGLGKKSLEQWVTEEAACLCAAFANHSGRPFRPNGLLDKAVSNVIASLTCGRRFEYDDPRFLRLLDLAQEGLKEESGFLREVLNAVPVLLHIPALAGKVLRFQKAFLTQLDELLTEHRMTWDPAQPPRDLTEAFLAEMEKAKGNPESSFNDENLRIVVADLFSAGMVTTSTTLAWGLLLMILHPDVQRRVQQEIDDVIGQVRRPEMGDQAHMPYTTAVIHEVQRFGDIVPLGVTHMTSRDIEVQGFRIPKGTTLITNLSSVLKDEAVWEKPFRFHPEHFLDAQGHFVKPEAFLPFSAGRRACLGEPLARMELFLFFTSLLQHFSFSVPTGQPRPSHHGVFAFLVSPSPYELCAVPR

Structure (SMILES)	target or system	test	system	conditions	scale	measurement	value
CNC(=O)O/N=C/C(C)(C)SC	Cytochrome P450 2D6 (CYP2D6, Homo sapiens, UniProt P10635)	inhibitor	human liver microsomes	2 µM, pH 7.4, together with: dextromethorphan		inhibition	2.45%
O=NN1CCN(C2CCCC2)CC1	Salmonella typhimurium, Escherichia coli	preincubation Ames test		concentration not given, with and without S9		mutagenicity	positive
CC(=O)N[C@H](CCCCNC(=O)C(C)F)C(=O)N[C@@H](CS)C(=O)N[C@@H](CS)C(=O)N[C@@H](CCC(=O)O)C(=O)N[C@@H](Cc1c[nH]cn1)C(=O)N[C@H](Cc1ccccc1)C(=O)N[C@@H](CCCNC(=N)N)C(=O)N[C@@H](Cc1c[nH]c2ccccc12)C(=O)N[C@@H](CS)C(=O)N[C@@H](CCCNC(=N)N)C(=O)N1CCC[C@H]1C(=O)N[C@H](C(N)=O)C(C)C (some centres unmarked) [fluorine-18 labelled]			nude mice, A375M xenograft, blood	intravenous, 2 h		tissue uptake	0.33 ± 0.22 %ID/g
O[C@H]1CCCN[C@@H]1CCCn1cnc2c(Cl)c(Cl)ccc21			human, plasma	oral, 300 mg single dose, capsule, geometric mean		AUC(0-inf)	1530 ng·h/mL
O=c1[nH]c(Cc2ccccn2)nc2c1cnn2C1CCOCC1			healthy men, extensive metabolizers, plasma	oral, 10 mg single dose, tablet, geometric mean		Cmax	99.8 nM
COc1ccc2c(c1)[C@]13CCCC[C@@H]1[C@H](C2)N(C)CC3			Wistar rat, both sexes, plasma	oral, 5 mg/kg, 2 h after pretreatment, together with: single quinidine 2.5 mg/kg		AUC(0-t)	126 ± 13.2 ng·h/mL
C=C1C[C@@H]2[C@H](CC[C@]3(C)C(=O)CC[C@@H]23)[C@@]2(C)C=CC(=O)C=C12		LC-MS/MS	postmenopausal breast cancer women, plasma	oral, 25 mg/day, 2 h, CYP1A1*2 homozygous variant		median plasma concentration	12.3 ng/mL
COc1ccsc1CNCC[C@@]1(c2ccccn2)CCOC2(CCCC2)C1			healthy human, normal hepatic function, plasma	intravenous, 1 mg single dose, arithmetic mean		half-life	2.1 ± 0.23 h
Cc1ncc2n1-c1ccc(Cl)cc1C(c1ccccc1F)=NC2			healthy men, plasma	oral, 7.5 mg, day 26, geometric mean, together with: 14 days post amenamevir		AUC(0-inf)	122 ng·h/mL
CN(C[C@H](O)c1cccc(O)c1)N=O	Salmonella typhimurium, Escherichia coli	preincubation Ames test		concentration not given, with and without S9		mutagenicity	negative
[123I]c1cncc(OC[C@@H]2CCN2)c1		SPECT	human, frontal lobe	intravenous bolus plus infusion, 7.6 mCi	reference: tissue over plasma	tissue/plasma ratio	21.6
CN(CCC(Oc1ccc(C(F)(F)F)cc1)c1ccccc1)N=O (centres unmarked)	Salmonella typhimurium, Escherichia coli	preincubation Ames test		concentration not given, with and without S9		mutagenicity	positive
C[C@H]1CNCCc2ccc(Cl)cc21			Sprague-Dawley rat, male, plasma	subcutaneous, 0.5 mg/kg, 60 min		plasma concentration	10.4 ± 0.26 ng/mL
COC(=O)[C@H](C(C)C)N(Cc1ccc(-c2ccccc2-c2nnn[nH]2)cc1)N=O	Salmonella typhimurium, Escherichia coli	preincubation Ames test		concentration not given, with and without S9		mutagenicity	negative
CNC(=O)O/N=C/C(C)(C)S(C)(=O)=O	Cytochrome P450 1A2 (CYP1A2, Homo sapiens, UniProt P05177)	inhibitor	human liver microsomes	10 µM, pH 7.4, together with: phenacetin		inhibition	0.21%
CN1CCN(N=O)CC1	Salmonella typhimurium, Escherichia coli	preincubation Ames test		concentration not given, with and without S9		mutagenicity	positive
CN[C@@](C)(C[18F])C(=O)O	A549 tumour model		host not given, pancreas	30 min, tumour-bearing		tracer uptake	50 %ID/g

Repeated from above:
Structure (SMILES)	target or system	test	system	conditions	scale	measurement	value
O=NN1CCN(C2CCCC2)CC1	Salmonella typhimurium, Escherichia coli	preincubation Ames test		concentration not given, with and without S9		mutagenicity	positive
